# Assay results gathered from unrelated publications.
# Compare with care: the assays were run in different laboratories. ± marks the error that the study gave.
SMILES,organism,assay,test system,conditions,MIC
CN(Cc1cc(C2CC2)on1)C(=O)c1cccc(-c2ccc3c(c2)CCO3)c1,Cryptococcus neoformans,broth microdilution,"H99, YNB with 2% acetate",,2 µg/mL
CC[C@H](C)[C@H](NC(=O)[C@H](CCCCN)NC(=O)[C@H](CC(N)=O)NC(=O)[C@H](CC(C)C)NC(=O)[C@H](Cc1ccccc1)NC(=O)[C@H](CCCCN)NC(=O)[C@H](CCCCNC(=N)N)NC(=O)[C@H](CC(C)C)NC(=O)[C@H](CC(C)C)NC(=O)[C@H](CCCCN)NC(=O)[C@H](CCCCNC(=N)N)NC(=O)[C@H](CC(C)C)NC(=O)CNC(C)=O)C(=O)N[C@@H](CCCCN)C(=O)N[C@@H](CCCCNC(=N)N)C(N)=O,Enterobacter aerogenes,broth microdilution,multidrug-resistant,,12.5 µM
C[C@@H](c1ccn(Cc2ccc(OC(F)(F)F)cc2)n1)[C@](O)(Cn1cnnn1)c1ccc(F)cc1F,Candidozyma auris,microbial growth,D12,"24 h, drug-resistant strain, clinical isolate",0.5 µg/mL
CN[C@@H]1[C@H](O)[C@H](NC)[C@H]2O[C@]3(O)[C@H](O[C@@H]2[C@H]1O)O[C@H](C)C[C@@]3(O)CNCc1ccccc1,Streptococcus pneumoniae,,D39X drug sensitive,,3 µg/mL
O=[N+]([O-])c1ccc(C2=[N+]([O-])c3ccccc3N3CCCN=C23)cc1,Clostridioides difficile,microbial growth,ATCC43255,,≤ 0.06 µg/mL
CC[C@@H](C)[C@@H](NC(=O)[C@@H](C)NC(=O)[C@@H](CCCCN)NC(=O)[C@@H](CC(C)C)NC(=O)[C@@H](C)NC(=O)[C@H](NC(=O)[C@@H](Cc1c[nH]cn1)NC(=O)[C@@H](CC(C)C)NC(=O)[C@H](NC(=O)[C@H](NC(=O)[C@@H](CCCCN)NC(=O)[C@@H](CCCCN)NC(=O)[C@@H](C)NC(=O)[C@@H](CO)NC(=O)[C@@H](CCCCN)NC(=O)[C@@H](Cc1ccccc1)NC(=O)[C@H](NC(=O)[C@@H](CCCCN)NC(=O)[C@@H](CC(C)C)NC(=O)[C@@H](Cc1ccccc1)NC(=O)[C@@H](CO)NC(=O)[C@@H](CCCCN)NC(=O)[C@@H](Cc1c[nH]c2ccccc12)NC(=O)[C@@H](CCCCN)NC(C)=O)[C@H](C)O)[C@H](C)O)C(C)C)[C@H](C)O)C(=O)N[C@H](CO)C(=O)N[C@H](CO)C(N)=O,Acinetobacter baumannii,broth microdilution,ATCC 17978,"24 h, 37 °C",0.8 µM
CC[C@H](C)[C@H](NC(=O)[C@H](CO)NC(=O)[C@H](CO)NC(=O)[C@H](Cc1ccccc1)NC(=O)CN)C(=O)N[C@@H](Cc1ccccc1)C(=O)N[C@@H](CCCNC(=N)N)C(=O)NCC(=O)N[C@H](C(=O)N[C@@H](C)C(=O)N[C@@H](CCCCN)C(N)=O)C(C)C,Escherichia coli,,ATCC 8739,added: 4 µM FeCl3,> 128 µM
C=C(NC(=O)C(=C)NC(=O)c1csc(C2=NC3c4csc(n4)C4NC(=O)c5csc(n5)C(C(C)(O)C(C)O)NC(=O)C5CSC(=N5)C(=CC)NC(=O)C(C(C)O)NC(=O)c5csc(n5)C3(CC2)NC(=O)C(C)NC(=O)C(=C)NC(=O)C(Cc2ccc(O)cc2)NC(=O)C(C(C)CC)NC2C=Cc3c(C(C)O)cc(nc3C2O)C(=O)OC4C)n1)C(N)=O (stereo not drawn),Bacillus sp.,broth microdilution,ATCC 27859,"18 h, 37 °C",0.27 µg/mL
CC[C@H](C)[C@H](NC(=O)[C@H](C)NC(=O)[C@@H](NC(=O)[C@H](CC(=O)O)NC(=O)[C@H](CCCCN)NC(=O)[C@H](CO)NC(=O)[C@@H](NC(=O)[C@H](CC(N)=O)NC(=O)[C@H](C)NC(=O)[C@@H](NC(=O)[C@H](CCC(=O)O)NC(=O)[C@H](CCCCN)NC(=O)[C@@H](NC(=O)[C@@H](NC(=O)[C@H](Cc1c[nH]cn1)NC(=O)[C@H](CCCCN)NC(=O)[C@@H](NC(=O)[C@H](CCCCN)NC(=O)[C@H](CCCCN)NC(=O)[C@@H](NC(=O)[C@H](CC(C)C)NC(=O)[C@H](CCCCN)NC(=O)[C@H](CC(N)=O)NC(=O)[C@H](Cc1ccccc1)NC(=O)[C@H](CCCNC(=N)N)NC(=O)[C@H](CCCCN)NC(=O)[C@H](CCCNC(=N)N)NC(=O)[C@H](Cc1ccccc1)NC(=O)CN)C(C)C)C(C)C)[C@@H](C)O)[C@@H](C)CC)[C@@H](C)O)C(C)C)C(C)C)C(=O)N[C@H](C(=O)N[C@@H](C)C(=O)NCC(=O)N[C@@H](CO)C(=O)NCC(=O)N[C@H](C(=O)N[C@@H](C)C(=O)N[C@H](C(=O)NCC(=O)N[C@@H](C)C(=O)N[C@@H](C)C(=O)N[C@@H](CCSC)C(N)=O)C(C)C)C(C)C)C(C)C,"Gram-positive bacteria, Candida albicans",,"reference strains, CAMHB",,≥ 1020 µg/mL
C[C@@H](c1ccn(Cc2ccc(I)cc2)n1)[C@](O)(Cn1cnnn1)c1ccc(F)cc1F,Candidozyma auris,growth,789 drug-resistant isolate,"24 h, 30 °C, ≥50% inhibition",0.125 µg/mL
Cc1c2oc3c(C)ccc(C(=O)N[C@@H]4C(=O)N[C@H](C(C)C)C(=O)N5[C@@H](C)CC[C@H]5C(=O)N(C)CC(=O)N(C)[C@@H](C(C)C)C(=O)O[C@@H]4C)c3nc-2c(C(=O)N[C@@H]2C(=O)N[C@H](C(C)C)C(=O)N3[C@@H](C)CC[C@H]3C(=O)N(C)CC(=O)N(C)[C@@H](C(C)C)C(=O)O[C@@H]2C)c(N)c1=O,Saccharomyces cerevisiae,broth microdilution,ATCC 204508,16 to 48 h,> 9.36 µg/mL
[O-][N+]1=C(c2ccccc2)C2=NCCN2c2ccccc21,Prevotella intermedia/nigrescens,,ATCC 25611,,≤ 0.06 µg/mL
CN[C@@H]1[C@H](O)[C@H](NC)[C@H]2O[C@]3(O)[C@H](O[C@@H]2[C@H]1O)O[C@H](C)C[C@@]3(O)CNCc1ccc(F)cc1,Streptococcus pneumoniae,,ATCC 700904 drug resistant,,6 µg/mL
CO[C@H]1CC(O)=C2C(=O)c3c(cc(C)c(-c4c(C)cc5c(c4O)C(=O)C4=C(O)C[C@H](OC)[C@@H](O)[C@]4(C)O5)c3O)O[C@@]2(C)[C@@H]1O,Colletotrichum acutatum,microbial growth,BCC,,5.1 µM
CC[C@H](C)[C@H](NC(=O)[C@H](CCCN)NC(=O)[C@H](CC(N)=O)NC(=O)[C@H](Cc1c[nH]c2ccccc12)NC(=O)[C@H](Cc1ccccc1)NC(=O)[C@H](CCCN)NC(=O)[C@H](CCCNC(=N)N)NC(=O)[C@H](CC(C)C)NC(=O)[C@H](Cc1c[nH]c2ccccc12)NC(=O)[C@H](CCCN)NC(=O)[C@H](CCCNC(=N)N)NC(=O)[C@H](CC(C)C)NC(=O)CNC(C)=O)C(=O)N[C@@H](CCCN)C(=O)N[C@@H](CCCNC(=N)N)C(N)=O,Enterobacter aerogenes,broth microdilution,multidrug-resistant,,12.5 µM
CC[C@H](C)[C@H](NC(=O)[C@H](C)NC(=O)CNC(=O)[C@@H](N)CCSC)C(=O)N[C@@H](C)C(=O)N[C@@H](CCCCN)C(=O)N[C@@H](CC(C)C)C(=O)N[C@H](C(=O)N[C@@H](C)C(=O)N[C@@H](CCCCN)C(=O)N[C@@H](Cc1ccccc1)C(=O)NCC(=O)N[C@@H](Cc1c[nH]c2ccccc12)C(=O)N1CCC[C@H]1C(=O)N[C@@H](Cc1ccccc1)C(=O)N[C@H](C(=O)N[C@@H](CCCCN)C(=O)N[C@@H](CCCCN)C(=O)N[C@@H](Cc1ccccc1)C(=O)N[C@@H](Cc1ccc(O)cc1)C(=O)N[C@@H](CCCCN)C(=O)N[C@@H](CCC(N)=O)C(=O)N[C@H](C(=O)N[C@@H](CCSC)C(=O)N[C@@H](CCC(N)=O)C(=O)N[C@@H](Cc1ccccc1)C(=O)N[C@H](C(=O)NCC(=O)N[C@@H](CCC(N)=O)C(=O)NCC(=O)N[C@@H](Cc1c[nH]c2ccccc12)C(=O)N[C@H](C(=O)N[C@H](C(=O)N[C@@H](CC(=O)O)C(=O)N[C@@H](CCC(N)=O)C(=O)N[C@H](C(=O)N[C@@H](CCC(=O)O)C(=O)N[C@@H](CCCCN)C(=O)N[C@@H](Cc1c[nH]c2ccccc12)C(=O)N[C@@H](CCCNC(=N)N)C(=O)N[C@@H](CCCCN)C(=O)N[C@@H](CCCNC(=N)N)C(=O)N[C@@H](Cc1c[nH]cn1)C(=O)O)[C@@H](C)CC)[C@@H](C)CC)[C@@H](C)O)[C@@H](C)CC)[C@@H](C)CC)[C@@H](C)CC)C(C)C,Bacillus subtilis subsp. subtilis,,ATCC 23857,10 h,6.4 ± 0.2 µM
C[N+]1=C2C(c3ccc([N+](=O)[O-])cc3)=[N+]([O-])c3ccccc3N2CCC1,Prevotella intermedia/nigrescens,,ATCC 25611,,2 µg/mL
CC(=O)OC1C(C)C(OC2CC3OCOC3C(C)O2)C=COC2(C)Oc3c(C)c(O)c4c(c3C2=O)C(=O)C=C(NC(=O)C(C)=CC=CC(C(C)OC(=O)C(C)(C)CC(=O)O)C(O)C(C)C(O)C1C)C4=O (stereo not drawn),Staphylococcus and Streptococcus pyogenes,,,,~1 µg/mL
CC(C)C[C@H](NC(=O)[C@H](CC(C)C)NC(=O)[C@H](C)NC(=O)[C@H](NC(=O)[C@H](CO)NC(=O)[C@@H](CCCCN)NC(=O)[C@@H](CC(C)C)NC(=O)[C@@H](N)Cc1ccccc1)[C@@H](O)C(N)=O)C(=O)O,Bacillus subtilis Staphylococcus epidermidis,,ATCC 14990,tested as TFA salt,> 32 µg/mL
[O-][N+]1=C(c2ccsc2)C2=NCCCN2c2ccccc21,Cutibacterium acnes,microbial growth,,,32 µg/mL
CC(C)C[C@H](NC(=O)CNC(=O)[C@H](C)NC(=O)[C@H](CCCNC(=N)N)NC(=O)[C@H](Cc1c[nH]cn1)NC(=O)CNC(=O)CN)C(=O)N[C@@H](CCC(N)=O)C(=O)N[C@@H](Cc1ccccc1)C(=O)N1CCC[C@H]1C(=O)N[C@H](C(=O)NCC(=O)N[C@@H](CCCNC(=N)N)C(=O)N[C@H](C(=O)N[C@@H](Cc1c[nH]cn1)C(=O)N[C@@H](CCCNC(=N)N)C(=O)N[C@@H](CC(C)C)C(=O)N[C@@H](CC(C)C)C(=O)N[C@@H](CCCNC(=N)N)C(=O)N[C@@H](CCCCN)C(N)=O)C(C)C)C(C)C,Enterobacter aerogenes,,ATCC 13048,18 to 20 h,> 32 µM
CN[C@@H]1[C@H](O)[C@H](NC)[C@H]2O[C@]3(O)[C@H](O[C@@H]2[C@H]1O)O[C@H](C)C[C@@]3(O)CNCc1ccc(OC(F)(F)F)cc1,Streptococcus pneumoniae,,Daw27 drug resistant,,3 µg/mL
COc1ccc(C2=[N+]([O-])c3ccccc3N3CCN=C23)cc1,Prevotella intermedia/nigrescens,,ATCC 25611,,≤ 0.06 µg/mL
C[C@@H](c1ccn(Cc2ccc(Cl)c(Cl)c2)n1)[C@](O)(Cn1cnnn1)c1ccc(F)cc1F,Candidozyma auris,growth,888 drug-resistant isolate,"24 h, 30 °C, ≥50% inhibition",16 µg/mL

# Excerpt of the above:
SMILES,organism,assay,test system,conditions,MIC
[O-][N+]1=C(c2ccsc2)C2=NCCCN2c2ccccc21,Cutibacterium acnes,microbial growth,,,32 µg/mL
CC(C)C[C@H](NC(=O)CNC(=O)[C@H](C)NC(=O)[C@H](CCCNC(=N)N)NC(=O)[C@H](Cc1c[nH]cn1)NC(=O)CNC(=O)CN)C(=O)N[C@@H](CCC(N)=O)C(=O)N[C@@H](Cc1ccccc1)C(=O)N1CCC[C@H]1C(=O)N[C@H](C(=O)NCC(=O)N[C@@H](CCCNC(=N)N)C(=O)N[C@H](C(=O)N[C@@H](Cc1c[nH]cn1)C(=O)N[C@@H](CCCNC(=N)N)C(=O)N[C@@H](CC(C)C)C(=O)N[C@@H](CC(C)C)C(=O)N[C@@H](CCCNC(=N)N)C(=O)N[C@@H](CCCCN)C(N)=O)C(C)C)C(C)C,Enterobacter aerogenes,,ATCC 13048,18 to 20 h,> 32 µM
